# Measured values pooled from the literature.
# Lines come from different studies, so protocols differ.
SMILES,test,system,setting,quantity,value
COc1nnc2ccc(N3CCC(c4ccc(OCCN5CCN(C)C(=O)[C@H]5C)cc4)CC3)nn12,item: thrombocytopenia,patients with solid tumours or lymphoma,"oral, dose not given, all grades, treatment-related",patients with adverse event,29.4%
CCNCCCNC/C=C\CNCCCNCC,,advanced refractory solid tumour patients,"intravenous, dose not given, nausea",patients with treatment-related TEAE,28.3%
C=CC(=O)N1CC[C@H](n2nc(C#Cc3cc(OC)cc(OC)c3)c3c(N)ncnc32)C1,,hyperphosphataemia patients,"oral, once daily, grade ≥3, all patients",patients with ADR,14%
N[C@@H]1c2ccccc2OC12CCN(c1cnc3c(N4CCCc5ncccc54)n[nH]c3n1)CC2,,advanced solid tumour patients,"oral, 60 mg once daily",patients with serious TEAE,20%
CC(C)C[C@H](NC(=O)[C@@H](Cc1c[nH]c2ccccc12)NC(=O)[C@H](Cc1ccc(O)cc1)NC(=O)[C@H](CO)NC(=O)[C@H](Cc1c[nH]c2ccccc12)NC(=O)[C@H](Cc1c[nH]cn1)NC(=O)[C@@H]1CCC(=O)N1)C(=O)N[C@@H](CCCNC(=N)N)C(=O)N1CCC[C@H]1C(=O)NCC(N)=O,,"Chinese CPP children, girls","intramuscular, 22.5 mg, 12 months, day 1, month 6",patients who died,0%
COc1c(C)cnc(Cn2cc(C#CCCOP(=O)(O)O)c3c(Cl)nc(N)nc32)c1C,,"patients, advanced solid tumours","dose not given, all doses",patients with headache,12%
COc1cc2c(Oc3ccc4[nH]c(C)cc4c3F)ccnc2cc1OCC1(N)CC1,,paediatric refractory sarcoma patients,dose not given,patients with grade 3 AST elevation,0%
COc1ccc(-c2c(-c3ccc(C#N)c(F)c3)nc(N3CCC(N)CC3)n(C)c2=O)cc1F,item: rash maculo-papular,neuroendocrine neoplasm patients,"oral, 60 mg, dose expansion",patients with TRAE any grade,0%
Nc1nc2cc(-c3ccc4ncc(C(=O)N5CCOCC5)n4c3)ccc2o1,"item: Fatigue, any cause, grade ≥3",patients with advanced solid tumours,dose not given,patients with adverse events,4%
C[C@@H]1OC(=O)NN=C1c1ccc(-c2ccc(F)cc2)c(C(F)(F)F)c1,,"patients, phase I trial","oral, 5 mg once daily, worst grade 1",patients with non-cardiac chest pain,0%
CN1CC[C@@H](c2c(O)cc(O)c3c(=O)cc(-c4ccc(C(F)(F)F)cc4Cl)oc23)[C@@H]1CO,item: febrile neutropenia,B-cell malignancies,"oral, 150 mg, grade 3 to 4, intermittent dosing",patients with adverse event,0%
CO[C@H]1C[C@@H]2CC[C@@H](C)[C@@](O)(O2)C(=O)C(=O)N2CCCC[C@H]2C(=O)O[C@H]([C@H](C)C[C@@H]2CC[C@@H](OC(=O)NCCOCCOCCOCCOCCOCCOCCOCCOCCC(=O)N3CCc4cc(Cn5nc(-c6ccc7oc(N)nc7c6)c6c(N)ncnc65)ccc4C3)[C@H](OC)C2)C[C@@H](O)[C@H](C)/C=C(\C)[C@@H](O)[C@@H](OC)C(=O)[C@H](C)C[C@H](C)/C=C/C=C/C=C/1C,item: grade ≥3 mucositis TEAE (bundled term),patients with advanced solid tumours,"intravenous, dose not given, all patients, weekly",patients with AE,11%
Cn1cc(-c2nc(N[C@@H]3CCCC[C@@H]3N)c(F)c3c2C(=O)NC3)cn1,,relapsed/refractory AML patients,"oral, 80 mg twice daily, phase Ib trial",patients with subdural haematoma,17%
C=CCNc1c(O)cc2c(O)c1C[C@@H](C)C[C@H](OC)[C@H](O)[C@@H](C)/C=C(\C)[C@H](OC(N)=O)[C@@H](OC)/C=C\C=C(/C)C(=O)N2,,"unresectable or metastatic STS, GIST, other","intravenous, 400 mg/m^2",patients with arthralgia TEAE,41%
CC(=O)c1c(C)c2cnc(Nc3ccc(C4CCN(CCS(C)(=O)=O)CC4)cn3)nc2n(C2CCCC2)c1=O,,HR+/HER2- advanced breast cancer patients,"oral, dose not given, grade 3/4,, total",patients with ALT increased,1.2%
O=C1Nc2cc3[nH]nc(-c4ccncc4)c3cc2CN1Cc1ccccc1,CTCAE v4.03,advanced solid tumour patients,"intravenous, 0.9 mg/kg, schedules 1/2",patients with diarrhoea,0%
[O-][S+]1CCc2nc(N3CCC(c4ncc(Cl)cn4)CC3)nc(NC3(CO)CCC3)c21 (centres unmarked),adverse event,idiopathic pulmonary fibrosis patients,18 mg twice daily,patients with occult blood positive,30%

# Excerpt of the above:
SMILES,test,system,setting,quantity,value
N[C@@H]1c2ccccc2OC12CCN(c1cnc3c(N4CCCc5ncccc54)n[nH]c3n1)CC2,,advanced solid tumour patients,"oral, 60 mg once daily",patients with serious TEAE,20%
